Measured values collected from several papers.
Parts stem from different laboratories: compare values within a part only.

Series 1
Target: Ras GTPase-activating protein-binding protein 1, full length (G3BP1, Homo sapiens, UniProt Q13283)
Sequence of UniProt Q13283 (whole entry, looked up): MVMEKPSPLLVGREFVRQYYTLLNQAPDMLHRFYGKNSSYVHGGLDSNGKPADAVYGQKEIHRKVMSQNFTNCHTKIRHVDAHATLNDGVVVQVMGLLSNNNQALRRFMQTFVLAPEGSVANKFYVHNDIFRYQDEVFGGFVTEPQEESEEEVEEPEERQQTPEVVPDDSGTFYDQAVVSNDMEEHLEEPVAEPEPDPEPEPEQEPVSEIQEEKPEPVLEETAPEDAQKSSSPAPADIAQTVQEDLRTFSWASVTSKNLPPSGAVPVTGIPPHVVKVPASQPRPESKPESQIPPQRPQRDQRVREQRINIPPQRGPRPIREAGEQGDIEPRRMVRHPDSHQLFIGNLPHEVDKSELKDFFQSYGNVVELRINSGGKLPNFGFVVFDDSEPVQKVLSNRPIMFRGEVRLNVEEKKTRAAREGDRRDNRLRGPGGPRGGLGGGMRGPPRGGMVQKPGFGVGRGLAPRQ
Technique: RNA Bind-n-Seq
Molecule type: RNA
Matrix: in vitro
Concentration: 200 nM
Notes: whole 134-nt RNA, ends assumed
Together with: 150 mM KCl
Baseline: input library
Direction: higher = stronger binding
Measurement: log2 enrichment
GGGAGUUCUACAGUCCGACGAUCCUCAAGUCCUGUGCUACACAUCGUAUGUACCGAAUCGGGUGGGAGGGAAAGGGAAAGUAUUAUGUUACGCCGUUCGGAUCUGCACUUCCAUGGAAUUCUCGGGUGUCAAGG: 1.23
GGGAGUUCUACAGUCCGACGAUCCUGUGCUACACAUCGUAUGUACCGAAUCGGCCCCCCCGGGGCCCCCCCGGGGCCCCCCCGGAAAGUAUUAUGUUACGCCGUUCGGAUCUGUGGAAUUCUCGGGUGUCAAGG: -0.504
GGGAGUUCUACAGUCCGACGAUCAGUCCUGUGCUACACAUCGUAUGUACCGAAUCGGGAAAAAGGGGAAAAAGGAAAAAGGAAAGUAUUAUGUUACGCCGUUCGGAUCUGCACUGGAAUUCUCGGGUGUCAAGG: -0.634
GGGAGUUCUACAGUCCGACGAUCACCAUGCAGUUGGGCAUCUUUGGGAAGUGGGGCAAGGGGGGGAUAGGGAGGGGGGUAACACUUUGGGAACAGGUGGUCCCAGGUCGUUUCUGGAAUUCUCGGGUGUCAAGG: 1.16
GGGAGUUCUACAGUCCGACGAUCAAGUCCUGUGCUACACAUCGUAUGUACCGAAUCGGGAAAAAGGGAAAAAGGGAGGGAAAGUAUUAUGUUACGCCGUUCGGAUCUGCACUUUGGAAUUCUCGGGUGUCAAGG: 0.446
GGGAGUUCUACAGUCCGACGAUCGCAGGAAGUAAAAACAAAUGGAAAUGCUUCGGAUAGUGGCAGGGGUGGGGGUUGCUAAGGAAAGGGUGGGAUGGGACUGGGUAAAGAGUUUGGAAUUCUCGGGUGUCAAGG: 1.13
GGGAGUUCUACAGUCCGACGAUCUGGCCCUGGUGGCAUGCGGGGAGGAAGAGGUCGCCUCAUGGAUCGUGGUGGUCCCGGUGGAAUGUUCAGAGGUGGCCGUGGUGGAGACAGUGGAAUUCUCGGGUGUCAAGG: -0.0612
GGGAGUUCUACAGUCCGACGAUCCUCAAGUCCUGUGCUACACAUCGUAUGUACCGAAUCGGAAGGGGAAGGAAGGGGAAAGUAUUAUGUUACGCCGUUCGGAUCUGCACUUCCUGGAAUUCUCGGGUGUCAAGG: 0.887
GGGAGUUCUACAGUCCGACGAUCUCCUGUGCUACACAUCGUAUGUACCGAAUCGGGAAAAAAGGAAAAAAGGGGAAAAAAGGAAAGUAUUAUGUUACGCCGUUCGGAUCUGCAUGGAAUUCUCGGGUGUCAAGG: -0.738
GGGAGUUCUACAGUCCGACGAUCCUCAAGUCCUGUGCUACACAUCGUAUGUACCGAAUCGGGGCCGGCCGGCCGGGAAAGUAUUAUGUUACGCCGUUCGGAUCUGCACUUCCAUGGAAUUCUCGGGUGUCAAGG: -0.0116

Series 2
Target: RING finger protein unkempt homolog, zinc fingers 1-6, GST-SBP tag (UNK, Homo sapiens, UniProt Q9C0B0, residues 30-357)
Sequence of UniProt Q9C0B0 (30-357, looked up): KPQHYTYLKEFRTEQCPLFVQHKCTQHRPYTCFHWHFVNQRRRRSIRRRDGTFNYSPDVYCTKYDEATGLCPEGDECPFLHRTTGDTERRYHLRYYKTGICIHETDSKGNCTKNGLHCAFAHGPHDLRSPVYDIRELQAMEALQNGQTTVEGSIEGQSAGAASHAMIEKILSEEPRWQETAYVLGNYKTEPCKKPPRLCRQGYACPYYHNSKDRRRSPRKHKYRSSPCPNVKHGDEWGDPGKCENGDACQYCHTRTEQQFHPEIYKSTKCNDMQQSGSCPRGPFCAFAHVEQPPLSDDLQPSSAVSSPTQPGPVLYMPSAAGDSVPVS
Technique: RNA Bind-n-Seq
Molecule type: RNA
Matrix: in vitro
Concentration: not given
Notes: RNA with constant flanks, human and mouse sites, ends assumed
Baseline: input RNA pool
Direction: higher = stronger binding
Measurement: bound/input enrichment
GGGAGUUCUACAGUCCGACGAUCAUUCUUACAGAUAAAAACUGUAUAUGUUUAUAAAUAGUUAUAAAGAACUAUUUUAUAUAAUAGCUAUUAUCAUUGUAGAAAUGACUUACAAAUACAAAAUGUGUAUGUAAAUACUUUCUGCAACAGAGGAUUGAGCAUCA: 0.398 ratio
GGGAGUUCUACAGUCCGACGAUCUUAAAGGUGCGCUAUCCAGAGCGCAUCACAAUAUUGCGAGGAAAUCACGAAAGCCGGCAGAUCACACAAGUGUAUGGCUUUUAUGAUGAGUGCCUACGGAAGUAUGGAAAUGCCAACGUGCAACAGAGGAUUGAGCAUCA: 0.147 ratio
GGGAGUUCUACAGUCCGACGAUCGAAAAUUCAAAGGCUGUAAGCAAAGCUACCACUGACUCAGAUAAAGAAAAACUGAUCAUGCUUGUCAGUGAUUUUUAUUAUGGAAGACAUGAAGGAACUAUUGAGGAAAGCCAGAAGACUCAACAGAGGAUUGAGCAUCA: 0.131 ratio
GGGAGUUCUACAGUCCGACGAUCUACAACAUGGCCUCAGUCGACUUUGAUGGCUUCUUUGCCGCCUUCCUCCCAGAGUUCCUGACCAGCUGUGAUGGUGUGGAUGCCAACCAGAAAAGUGUGCUGGGGCGGAAUUUCAAGAUGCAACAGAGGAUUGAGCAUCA: 0.117 ratio
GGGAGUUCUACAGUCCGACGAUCCGCCUGAGUACAGACGUGACUUGUAGCUUGUUGCCUAACAGGCUUACUAACCCAAGACAGUUUAGAAAAUGUAUGUUAAAUCAAUCAUUCUCGAAGGAUUCAAGUCCUAUGCACAGAGGACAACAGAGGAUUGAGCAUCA: 1.21 ratio
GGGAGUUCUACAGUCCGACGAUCCCUUUUUGUUACUUGACACUUCCAUUGCCCAUGAAAAAAGAACGCACCUUGGAAGUUUACUUAGUUAGAAUGGAUCCACUUACCAAACCUAUGCAGUACAAAGUGGUUGUCCCCAAAAUUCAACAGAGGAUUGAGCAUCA: 0.44 ratio
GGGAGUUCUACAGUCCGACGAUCAAAACCAAAAAAAAAUCUAGAGAUGUGGCUGUGGCUUUUUGGGAGGUGGGGCAUGGGAGGACCAGAGACGAAGGGCUUGGAAGGAGACCCCCACAUGCAUCAUUUCCUCCUCUUCACAGUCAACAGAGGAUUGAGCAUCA: 0.353 ratio
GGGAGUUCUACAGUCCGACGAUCGAGUUCCGUUCUGGAAAGGCACCCAUCCUUAUUGCUACAGAUGUAGCCUCCCGUGGGCUAGAUGUGGAAGAUGUCAAGUUUGUGAUCAACUAUGACUAUCCAAACAGCUCAGAGGAUUAUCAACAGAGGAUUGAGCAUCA: 0.118 ratio
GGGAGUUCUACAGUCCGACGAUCGGGGACAGUGUUGGGAUUGUCAAGGAAAAAGGGGUAGGAAGGAAGGUGGAGGGAUUGAUCUAGUACCAGGGAGAAUAUUCCACUGAACUGUGAUUCUAUGGCUUGGGGCGGAGGGUGGGGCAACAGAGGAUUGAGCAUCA: 0.52 ratio
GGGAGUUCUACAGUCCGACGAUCGAGGACACUGGACUAAAUGAUUGCCCAGUUUCCAGCUAGUCCUAGAGUUCUAUAUUUCUACAUAGUUGAAUUAUUUUAUCAUGCGGUUGCUGGGGAAUACAACUAACACUUUUGAAGCUACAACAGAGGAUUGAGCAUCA: 3.62 ratio
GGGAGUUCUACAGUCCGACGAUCGAAUGUAUCUCACCUACAUACAAGACUGGACCAUCACUGCACAGGGAAUAUGGUAGCACAUCUUCAAUUGAUAAACAGGGAACAUCUGGAGAAAGCUUUUUUGAUUUGUUAAAGGGCUACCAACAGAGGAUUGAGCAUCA: 0.293 ratio

Series 3
Target: RNA binding protein fox-1 homolog 2, RRM domain, GST-SBP tag (RBFOX2, Homo sapiens, UniProt O43251-10, residues 100-194)
Technique: RNA Bind-n-Seq
Molecule type: RNA
Matrix: in vitro
Concentration: 365 nM
Notes: natural RNA segment, single round, ends assumed
Baseline: no-protein control
Direction: higher = stronger binding
Measurement: RBNS enrichment (R)
Target sequence (chain): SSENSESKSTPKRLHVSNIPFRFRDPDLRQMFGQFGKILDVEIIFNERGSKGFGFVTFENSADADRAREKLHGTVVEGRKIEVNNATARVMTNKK
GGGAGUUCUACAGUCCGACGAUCCUUCCCCCUGAAUUGACCAGUAGCAGCUCCAGCCCCAUUUCACAAAAGUGAGUUUGGCCAGGAGGAAUGAGACGUCUCCUGAAAUAGGAACACCGGAACAUCAUGCUCACUGGAAUUCUCGGGUGCCAA: 0.275
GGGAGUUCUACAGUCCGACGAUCCCUUAUCAAAUGUGUCUGCAAAUCAAGAUGGUCUAAAGUGCAAGCCAGUUUUUUGUUUGCUUGUUUUUGAAACUGGGUUUAGGGGAUACAGUUGUCAGAAGUGACUCAUUUGGAAUUCUCGGGUGCCAA: 1.12
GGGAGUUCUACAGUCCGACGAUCCACACACACGCACAGGGGAAUAAAAUAAGAAAAUCAUUUUCCUCACCAUAGACUUGAUCCCAUCCUUACAACCCAUCCUUCUAACUUGAUGUGUAUAAAAUAUGCAAACAUGGAAUUCUCGGGUGCCAA: 0.527
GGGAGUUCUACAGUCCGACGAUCCUCUGUUCCAAACAGGCCAGUGGAGUCCUGAAAGUAAGCAGAGAAAGCGCUCAUUCAGCUUGGCAGGAUGCUCAGCAAACCCUGCUUUCUGCAUAACCACCACCAAUCCCUGGAAUUCUCGGGUGCCAA: 0.297
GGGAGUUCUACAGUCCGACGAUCAAUAUUGACCUAACUAACUUGAAUGUCUCAUAUGAUGAAUCAAUAAACUAUGUGCACAUAGCUUUGAUGUUGGUUUCUUGUGUCAUUUGUAGGGGUUUUGUUUUGAAGUUUGGAAUUCUCGGGUGCCAA: 0.434
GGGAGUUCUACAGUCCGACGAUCGGAUGACACUGUAAACUCUCUGGACGAGUAGGAGCAAGGUGAGACAUUUCAAGAAAUUACAGACUUCAUUAAAGGUGUAAAUUAAAGUGGCUUGCCAAAAACGAGGAACUUGGAAUUCUCGGGUGCCAA: 0.734
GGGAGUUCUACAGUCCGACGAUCGGUCCAGCACAAGAUGUGAAGAUUAAAUGCCUAUUCUUACUGAAGGUUUGAUGUGGAAUCAUGGCUGCAGUGAUAUGUUUUUAUCAGCGCUUGGUGGUUUUAAAGUGCAUUGGAAUUCUCGGGUGCCAA: 0.463
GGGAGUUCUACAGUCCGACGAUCUUCCUCCUGGACCCCAUCCUCUACCAUCCAAGCCCUGUCCCACUUUGGCCCUAUCCUCUCCAUUAGCUCCUUCCGGGUUUGGACCAUUCCCCCCACUCCCUACCCUUAAUUGGAAUUCUCGGGUGCCAA: 0.979
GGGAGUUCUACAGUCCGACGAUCACAAAAGGCACUGAGGAACUUGCACCCCUUCCAGGGAGGGUGUCCAAGUAGCACCGUUCCUGCCCAGUGGGAAAGCAAUCCCAACAUGUCUGAGAUGUUCGGACUUUUAAUGGAAUUCUCGGGUGCCAA: 0.253

Series 4
Target: Interferon regulatory factor 3, full length, phosphomimetic (IRF3, Homo sapiens, UniProt Q14653, residues 1-427, S386D/S396D/S398D/S402D/T404D/S405D)
Technique: protein-binding microarray
Molecule type: double-stranded DNA, one strand shown
Matrix: in vitro
Concentration: 2540 nM top
Notes: 60-bp whole probe
Together with: salmon DNA 0.4 mg/ml
Baseline: random background probes
Direction: higher = stronger binding
Measurement: fitted relative affinity
All sequences stand within: GCCTAGCAC … GTCTTGATTCGCTTGACGCTGCTG
Residues (chain): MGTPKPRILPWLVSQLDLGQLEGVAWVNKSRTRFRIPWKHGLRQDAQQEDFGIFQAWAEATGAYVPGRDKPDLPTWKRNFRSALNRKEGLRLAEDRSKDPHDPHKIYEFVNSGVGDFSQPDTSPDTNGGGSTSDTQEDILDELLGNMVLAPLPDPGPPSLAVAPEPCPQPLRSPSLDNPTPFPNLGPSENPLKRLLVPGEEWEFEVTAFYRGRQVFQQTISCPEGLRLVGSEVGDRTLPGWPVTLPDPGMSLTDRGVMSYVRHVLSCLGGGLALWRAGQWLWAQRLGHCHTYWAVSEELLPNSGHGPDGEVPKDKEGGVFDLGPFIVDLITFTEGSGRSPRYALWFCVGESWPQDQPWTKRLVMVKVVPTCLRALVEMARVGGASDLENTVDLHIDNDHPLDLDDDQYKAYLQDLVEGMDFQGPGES
TTACGTATCGACACTGGGTTAGTGCTA: 0.52 z-score
TGTTTTTTGGTTTCTGGTTTGTGCTAG: 3.26 z-score
TTAGGACAGGGTATCGGTTAGTGCTAG: 0.442 z-score
GACCGTCTCGGACTGGGGACGTGCTAG: 0.751 z-score
GTGTTTTCATTTTATGACAGCGTGCTA: 4.53 z-score
TTAGGACTGGGGTATCGGTTTGTGCTA: 0.983 z-score
TTTGATTTCAGTATCGATTAGTGCTAG: 2.8 z-score
TCATTTTTTTGTATTTTACTGTGCTAG: 1.12 z-score
TTAGGTTTCCTTCTGCTTTAGTGCTAG: 7.06 z-score
GACGATATCAGTCTCGAGATGTGCTAG: 1.04 z-score
GAGGATCTCAGTCTCGAGACGTGCTAG: 0.0416 z-score
TTAGGTATCCTTATCTTTTAGTGCTAG: 4.63 z-score
GACGAACTGAGTTTAGAGACGTGCTAG: -0.121 z-score
GACGAAGTGAGTCTCGAGACGTGCTAG: -0.631 z-score
GACGATCTCAGTCTCGAGTCGTGCTAG: 1.08 z-score
AACGGTATCCTTTTCCTGACGTGCTAG: 7.54 z-score
GACGGTATCCATCTCCTGACGTGCTAG: 5.17 z-score
CTCGGTTTCCAAATTGTCTCGTGCTAG: 6.69 z-score
GACGGTAGCGGACTGGGGACGTGCTAG: -0.661 z-score
